# Assay results collected from several papers.
# Every numbered part comes from another study and shows a few of its results, in no order. Positions count from the first letter of the parent shown.

# Study 1
# Target: Interferon regulatory factor 5, full length, phosphomimetic (IRF5, Homo sapiens, UniProt Q13568-2, residues 1-514, K96S/S451D/S453D/S456D/S462D)
# Method: protein-binding microarray
# Molecule type: double-stranded DNA, one strand shown
# Medium: in vitro
# Concentration: 250 nM
# Setting: 60-bp whole probe
# Added: salmon DNA 0.4 mg/ml
# Relative to: random background probes
# Reading: higher = stronger binding
# Shared flanks, not repeated: GCCTAGCAC … GTCTTGATTCGCTTGACGCTGCTG
Strand,log fluorescence [z-score]
TTTCATATATATATGAATATGTGCTAG,7.9
AGCACTCCAGAGGCAGAGGCGTGCTAG,-0.536
TTAGGTTTCAGGACTGGGTTAGTGCTA,1.51
GACGCTTTCGACTTTCGGGACGTGCTA,8.62
TAGGCTCCAGGTTCTCTGAAGGTGCTA,-0.81
CATTGCTTGTGTTTATTGTGGTGCTAG,0.389
GACGGTATCCTTATCCTGAAGTGCTAG,0.0418
TTAGATATCGGTATCGATTAGTGCTAG,8.83
TTAGATATCGGTTTTCGATTAGTGCTA,7.76
CTAGCTTCCATTTTCTGAACGTGCTAG,0.719
TCATGTACGTCGTTTCCCACTGTGCTA,0.514
AACGGTTTCGGTTTCGGGACGTGCTAG,10.8
TTAGGTTTCGGTACTGGGTTAGTGCTA,9.55

# Study 2
# Target: CCNB3, cyclin fold, Cln2 fusion (human)
# Method: yeast growth competition, sequencing
# Medium: yeast
# Setting: weak parent motif
# Relative to: not given
# Reading: higher = stronger binding
# Starting sequence: CDC25A docking peptide (human); PPHRRRLLFACSP
Change,normalised enrichment score
A10K,0.00593
L8W,0.369
S12M,0.228
R4C,1.23
P1L,0.118
A10L,0.0783
H3I,0.458
L7D,0.0695
A10T,0.232
F9S,0.395
R4N,0.491
L7W,0.409
F9E,0.295
R6H,0.196
R4Q,0.409
P1Y,0.646
C11N,-0.0665
P1C,-0.103
P13D,0.793
L8T,0.214
P13C,0.413
H3K,-0.385
P1F,0.355
C11Y,0.0723
R6C,-0.0858

# Study 3
# Target: RNA binding protein fox-1 homolog 2, RRM domain, GST-SBP tag (RBFOX2, Homo sapiens, UniProt O43251-10, residues 100-194)
# Method: RNA Bind-n-Seq
# Molecule type: RNA
# Medium: in vitro
# Concentration: 365 nM
# Setting: natural RNA segment, single round, ends assumed
# Relative to: no-protein control
# Reading: higher = stronger binding
# Shared flanks, not repeated: GGGAGUUCUACAGUCCGACGAUC … UGGAAUUCUCGGGUGCCAA
# Target sequence (chain): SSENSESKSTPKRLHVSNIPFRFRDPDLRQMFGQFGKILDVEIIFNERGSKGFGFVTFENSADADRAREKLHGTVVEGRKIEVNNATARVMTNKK
Strand,RBNS enrichment (R)
GAGGACCUUUAGGUCAAACUCCCUAGUCUCCACCUGAGACCCUGGGAGAGAAGUUUGAAGCACAACUCCCUUAAGGUCUCCAAACCAGACGGUGACGCCUGCGGGACCAU,0.255
GACCUGCGCUCCAGGGUGGUCUCGGUCCCAGGGUGGUCCCAGCUGGUGGGAGCCUCUGGCUGCAUCUGUGCAGCCACAUCCUUGUACAGAGGCAUAGGUUACCACCCCCA,0.159
CCCAGUGGGCUCGGCAGCCGUCACUUCACAGAAGAAGAAAGGAACCUUGCUUAGGCCUCAGAUCCCAGCUGUGCUCUCCAAUCCAUUAAUAAAGCUGCUUUUAACCCUCU,0.488
AUGUGGUCCAGCUGUUUUAAUUGAGUGCUUUUAAAUGAAACCUGACUGCCAUCUUUCUUUUGUGACUUUCUUCCUUAAGCAACAGUAAACUUGCAGCAGAUCUGGUUUUU,0.684
ACCCCACCAGGCCAUCCCCAUACCUUCUGGUUUGAAGGCGCUGACACUGGCAGAGAGGUAAAGGGUGGGGCAUUGAGAAUGGAGGCUCCCAGGGUCCCUGCCCACUUCUG,0.41
CCAGCAUGCACUUCAGGAUCAUUAGUGUAUUUAGAAUCUGUAAAAAUAAUAAAUAUGUUUGAAACAAUUUCUUGUUGUUUUGUCUAUGUGUGGACGCCUGACUUGCCAGC,11.9
GGCUUUGAAGGUCAUUUGCACAAGAGCACGUGACCCAGAGAUGGAGAAGUGAGGUUCAGGGAGGGUGCUUAGAGACCAGCCUGUUCUUUGAGCUGUAGAGACUCAUGCUG,1.21
AAGUAGCAUUCCUCCACCUCAGGCCUUGGGUAGAUUUGGCAAAAGAACAGGAGCAGCAUAGGCUGUUUGAGCUUUGGGGAAAUGAACUUUGCUUUUUAUAUUUAACUAGG,0.689
AACAUUUCCCGGGGGUGGUUUUGAACCUGCUUGGGUGGUUGUGUGGUGCUGACGCUGCCACUGCCCUGUUGUUCAUUGAGAAUGAUUGUUAAAUGACACUCUUCCUUUAG,0.254
GAUAUGCUUACUAAAUCUUCAGCAUAGAAGGAAGUGUGUUUGCCUAAAACAAUCUAAAACAAUUCCCUUCUUUUUCAUCCCAGACCAAUGGCAUUAUUAGGUCUUAAAGU,0.38
UCCAUAUAGACACCAAGGAGGCGGAGGCGCUCCUCCCUGCCUCAGUGGCUCUGGGUACCUGCAAGCAGAACUUCCAAAGAGAGUUAAAAGCAGCAGCCCCGGCAACUCUG,0.371
UCUUCAUUCAACUCAGAAGGCCUGAUCUGUGUAUAUUCUGGUGUGUAUUGUAUGGUAGCUCUUUGAGCCUUGGUUGGUCGACUCUAGUGUAAGUUUAAUUAAUUGUAUAU,1.01

# Study 4
# Target: PABPC1L2, full length, GST fusion (mouse, UniProt A0ABA7IW68)
# Method: RNAcompete
# Molecule type: RNA
# Medium: in vitro
# Concentration: 20 nM
# Setting: 7-mer, probes averaged, single round
# Relative to: mean of 7-mers
# Reading: higher = stronger binding
# Residues (chain): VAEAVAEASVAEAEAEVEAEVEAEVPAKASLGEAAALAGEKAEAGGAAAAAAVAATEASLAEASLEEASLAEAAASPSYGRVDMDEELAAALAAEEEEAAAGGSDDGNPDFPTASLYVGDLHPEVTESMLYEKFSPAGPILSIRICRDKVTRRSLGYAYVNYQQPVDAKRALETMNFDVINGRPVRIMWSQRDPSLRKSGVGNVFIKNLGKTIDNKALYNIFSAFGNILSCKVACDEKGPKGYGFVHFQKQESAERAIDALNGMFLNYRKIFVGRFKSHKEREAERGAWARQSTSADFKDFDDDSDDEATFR
Strand,7-mer Z-score
CGUUGGU,-0.182
UUAUUGG,-0.0228
GAACGUC,-0.115
CGUGGCC,0.0533
CCCUAUC,-0.387
UCGCUAG,-0.324
UAUCUCG,-0.298
ACACCGA,0.00979
CCGAUAC,-0.233
UGGCAUA,-0.0337
ACCCGUU,-0.315
GCUGCAC,-0.228
GUGCAGA,0.171
AUCCGUG,-0.235
UAGAUCA,-0.0935
GGGCGGA,0.784
AGCGCAG,0.0261

# Study 5
# Target: Histone acetyltransferase KAT6A, both winged helices, GST fusion (KAT6A, Homo sapiens, UniProt Q92794, residues 1-181)
# Method: protein binding microarray
# Molecule type: double-stranded DNA, one strand shown
# Medium: in vitro
# Concentration: not given
# Setting: 8-mer, flanks averaged, mean of 2 arrays, mostly near background
# Relative to: not given
# Reading: higher = stronger binding
# Residues (chain): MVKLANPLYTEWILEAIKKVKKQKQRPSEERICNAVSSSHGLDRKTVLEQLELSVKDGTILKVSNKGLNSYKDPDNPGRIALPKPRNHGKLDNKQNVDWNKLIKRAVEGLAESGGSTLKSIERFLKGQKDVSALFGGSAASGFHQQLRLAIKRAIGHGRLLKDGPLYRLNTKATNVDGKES
Strand,E-score
GGGTTTAC,0.111
ACGCGAAC,0.183
AACAGTAC,-0.0434
TGCGCACA,0.248
AATAGTTG,-0.108
GACAGGTC,-0.13
AGTGGCGA,0.0378
ATCTAGAT,-0.155
ATGGGGCA,-0.202
ACTCAGCC,-0.0848
ATGAGTGA,-0.192
ATAGTTAC,-0.053
AACGGCAG,0.228
CAGCAGAA,-0.0151
GAAACCAA,-0.122
GTCGTCTA,0.13
CTGTTCAC,-0.0202
AGCTGGCC,-0.0177
ATCTCCCC,-0.203
CAATAAAC,-0.0268
CTTATCAC,-0.107
AACTTATC,-0.0886
CTAATACC,0.022
ATTGGATA,-0.0474
ACCCTGAG,-0.0287
